Assay results from different studies.
Compare with care: the assays were run in different laboratories.
Organism: Staphylococcus aureus

SMILES	effect on	technique	strain	time	temperature	notes	MIC
CC(C)C[C@H](NC(=O)[C@H](CC(N)=O)NC(=O)[C@H](CCCNC(=N)N)NC(=O)[C@@H](CC(C)C)NC(=O)[C@H](Cc1ccc(-c2ccccc2)cc1)NC(=O)[C@H](CC(=O)O)NC(=O)[C@H](CCCCN)NC(=O)[C@@H](CC(C)C)NC(=O)[C@H](CCCNC(=N)N)NC(=O)[C@H](CCC(N)=O)NC(=O)[C@@H](NC(=O)[C@@H](CC(C)C)NC(=O)[C@H](CCCNC(=N)N)NC(=O)[C@H](CCCCN)NC(=O)[C@H](Cc1ccc(-c2ccccc2)cc1)NC(=O)CN)C(C)C)C(=O)N[C@H](C(N)=O)C(C)C	–	broth microdilution	USA300 LAC, MRSA	–	–	–	3.1 µM
CC(C)CS[C@H]1[C@H](O)[C@@H](N)[C@@H](O[C@H]2[C@H](O[C@@H]3O[C@H](CO)[C@@H](O[C@H]4O[C@@H](CN)[C@@H](O)[C@H](O)[C@H]4N)[C@H]3O)[C@@H](O)[C@H](N)C[C@@H]2N)O[C@@H]1CO	–	–	methicillin-resistant	–	–	–	2 µg/mL
c1ccc(CN2CCOCCOCCN(CCCCCCCCCCN3CCOCCOCCN(CCCCCCCCCCN4CCOCCOCCN(Cc5ccccc5)CCOCCOCC4)CCOCCOCC3)CCOCCOCC2)cc1	microbial growth	–	MRSA	–	–	–	6 µM
C=CCO[C@H]1[C@H](O)[C@@H](N)[C@@H](O[C@H]2[C@H](O[C@@H]3O[C@H](CO)[C@@H](O[C@H]4O[C@@H](CN)[C@@H](O)[C@H](O)[C@H]4N)[C@H]3O)[C@@H](O)[C@H](N)C[C@@H]2N)O[C@@H]1CO	–	broth microdilution	MRSA isolate AG 045	–	–	–	8 to 16 µg/mL
CN(C)c1cc(CNCc2ccccc2)c(O)c2c1C[C@H]1C[C@H]3[C@H](N(C)C)C(O)=C(C(N)=O)C(=O)[C@@]3(O)C(O)=C1C2=O	–	–	MRSA 5, Tet M ribosome protection	–	–	–	0.5 µg/mL
Oc1c(Br)cc(Br)c2nc3cc(I)ccc3nc12	–	broth microdilution	MRSA 44	–	–	–	0.05 µM
CO[C@@H](C(N)=O)[C@H](NC(=O)c1ccc(NC(=O)c2ccc([N+](=O)[O-])cc2)cc1)C(=O)Nc1ccc(C(=O)Nc2ccc(C(=O)Nc3ccc(C(=O)O)cc3)c(O)c2OC(C)C)cc1	microbial growth	–	ATCC29213	–	–	–	0.5 µg/mL
CN(C)c1cc(CNCC2CCCCC2)c(O)c2c1C[C@H]1C[C@H]3[C@H](N(C)C)C(O)=C(C(N)=O)C(=O)[C@@]3(O)C(O)=C1C2=O	microbial growth	–	MRSA	–	–	–	1 µg/mL
O=C(O)CN1C(=O)/C(=C/c2ccc(-c3ccc(N(c4ccccc4)c4ccccc4)cc3)cc2)NC1=S	–	broth microdilution	ATCC 25923	–	–	–	3.9 µg/mL
Nn1c(CCc2c[nH]c3ccccc23)nc2cc(Cl)ccc2c1=O	–	broth microdilution	RN6390B	–	–	–	> 100 µM
CC1=CC2(C)C(=C(C)C3C4CC(C)CC(C)C4C4Oc5ccc(cc5)CC5(O)NC(=O)C(=C(O)C2C43)C5Nc2ncnc3c2ncn3C2OC(CO)C(O)C2O)C1C (stereo not drawn)	microbial growth	broth dilution	ATCC29213	–	–	–	6.3 µM
Clc1ccc(CSc2nnc(C34CC5CC(CC(C5)C3)C4)n2-c2ccccc2)cc1	–	two-fold dilution	IFO 3060	24 h	36 °C	–	8 µg/mL
CCC1(C)CCN(Cc2cc(N(C)C)c3c(c2O)C(=O)C2=C(O)[C@]4(O)C(=O)C(C(N)=O)=C(O)[C@@H](N(C)C)[C@@H]4C[C@@H]2C3)CC1	–	–	RN4250, Tet K efflux	–	–	–	1 µg/mL
CN1CCC(NCCC2(Cc3ccc(Cl)cc3)CCCCC2)CC1	microbial growth	–	MRSA	10 h	–	–	200 µM
CNC(CC(C)C)C(=O)NC1C(=O)NC(CC(N)=O)C(=O)NC2C(=O)NC3C(=O)NC(C(=O)NC(C(=O)O)c4cc(O)cc(O)c4-c4cc3ccc4O)C(O)c3ccc(c(Cl)c3)Oc3cc2cc(c3OC2OC(CO)C(O)C(O)C2OC2CC(C)(NC(=O)CCCC[n+]3ccccc3)C(O)C(C)O2)Oc2ccc(cc2Cl)C1O (stereo not drawn)	microbial growth	agar dilution	–	–	–	clinical isolate	64 µg/mL
